Assay results gathered from unrelated publications.
A part holds a random share of what one study measured. Substitutions count along the parent as printed.

Sample 1 — technique: protein-binding microarray; molecule type: double-stranded DNA, one strand shown; sample: in vitro; concentration: 940 nM top; setting: 60-bp whole probe; added: salmon DNA 0.4 mg/ml; reference: random background probes; direction: higher = stronger binding; endpoint: fitted relative affinity; shared flanks, not repeated: GCCTAGCAC … GTCTTGATTCGCTTGACGCTGCTG
Target: Interferon regulatory factor 5, full length, phosphomimetic (IRF5, Homo sapiens, UniProt Q13568-2, residues 1-514, S451D/S453D/S456D/S462D)
GATGTTTTAGGTCCCTTTTCGTGCTAG: 0.477 z-score
TTAGAACTGGGCTTTCGATTAGTGCTA: 0.79 z-score
GACGGTTACGACTATCGGGACGTGCTA: 0.0109 z-score
TTAGATATCGGTACTGGATTAGTGCTA: 1.03 z-score
TTTGATATCAGTTTCGATTAGTGCTAG: 8.39 z-score
TCAAATCTCCCATTATAACTGTGCTAG: 0.996 z-score
CCCTATTTAAGGCATCTGCAGGTGCTA: 0.0568 z-score
TGGGTATTTTTTCTGAACCAGTGCTAG: 1.28 z-score
GACGGGCTGGACTATCGGGACGTGCTA: -0.548 z-score
GACGGTCTCTGACTGGGGACGTGCTAG: -0.245 z-score
TCACAATTCTCTTTTCAACTGTGCTAG: 1.12 z-score
TCACCTATCCAAGTTCCCACTGTGCTA: 1.21 z-score
TTAGGTCTCGGAGTGGGTTAGTGCTAG: 0.765 z-score
GACGATATCAGTCTCGCGACGTGCTAG: -0.199 z-score
TTAGGACTGCTTCTCCTTGAGTGCTAG: -0.212 z-score
GACGGTATCCTTTTCCTCACGTGCTAG: 0.777 z-score
TTCGATTTCAGTCTCGATTAGTGCTAG: 4.48 z-score
TTCCTTGCTATGTTGCTCAGGTGCTAG: 0.534 z-score
GACGATCTCAGTCTCGAGAAGTGCTAG: 1.14 z-score
TTAGGTTTGGACTTTCGGTTAGTGCTA: 2.59 z-score
TTAGAACTGGGGTATCGATTGGTGCTA: 2.63 z-score
AGGGTCCCGCGATTCGACACGTGCTAG: -0.405 z-score

Sample 2 — technique: protein binding microarray; molecule type: double-stranded DNA, one strand shown; sample: in vitro; concentration: not given; reference: not given; direction: higher = stronger binding; endpoint: E-score
Target: Histone acetyltransferase KAT6A, winged helix 1, GST fusion (KAT6A, Homo sapiens, UniProt Q92794, residues 1-85)
Setting: 8-mer, flanks averaged, mean of 2 arrays, mostly near background
Residues (chain): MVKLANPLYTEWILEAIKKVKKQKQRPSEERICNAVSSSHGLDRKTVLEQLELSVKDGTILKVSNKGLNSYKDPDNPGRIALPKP
CATCCCGA: 0.0835
GACGTTAA: -0.0475
AATCCATT: -0.2
CGACCTAG: 0.0501
CAAATCGG: 0.111
GAAGAGTA: 0.0725
ATATTTTA: -0.121
CCTTGGAA: -0.221
ATCCCAGC: -0.225
CAGTGATC: -0.0374
CGGTCTGA: 0.14
AAAAACTA: 0.0135
GGGCCTTA: 0.116
GGGAAGAC: 0.197
CCCTCTAG: -0.121
GGTATTGA: -0.0337
GAAGGCCA: -0.138
ATAGAAGA: -0.035
ATAGTAGG: -0.0158
AGCGACCT: 0.0437
CTGCTGGC: 0.0802
CCGTCGGA: 0.455
TAGGCGGA: 0.104
AAAACGAT: -0.138
ATCCGGTA: -0.0156

Sample 3 — technique: DHFR PCA, deep sequencing; sample: yeast; added: (+)-ABA 0.11 µM; reference: wild-type fitted maximum; direction: higher = stronger binding; endpoint: relative binding score
Target: ABI1, truncated, D143A, DHFR fusion (Arabidopsis thaliana)
Setting: methotrexate growth selection, single substitutions
Starting sequence: PYL1, truncated, DHFR fusion (Arabidopsis thaliana); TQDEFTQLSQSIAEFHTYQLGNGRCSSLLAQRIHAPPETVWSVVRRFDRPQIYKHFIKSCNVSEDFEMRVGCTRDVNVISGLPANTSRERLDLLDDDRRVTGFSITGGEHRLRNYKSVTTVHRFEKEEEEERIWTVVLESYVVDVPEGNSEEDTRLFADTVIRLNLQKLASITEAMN
R163Q: 33.7%
G148S: -4.27%
N61L: 25.5%
A35H: -3.35%
V62Q: -5.69%
T120C: -5.07%
E109T: 12.7%
L20T: 54.9%
R113S: 14.8%
R45G: -3.72%
I12N: 4.87%
R163L: -0.488%
R90F: -2.2%

Sample 4 — technique: RNA Bind-n-Seq; molecule type: RNA; sample: in vitro; concentration: 365 nM; reference: no-protein control; direction: higher = stronger binding; endpoint: RBNS enrichment (R)
Target: RNA binding protein fox-1 homolog 2, RRM domain, GST-SBP tag (RBFOX2, Homo sapiens, UniProt O43251-10, residues 100-194)
Setting: natural RNA segment, single round, ends assumed
Shared flanks, not repeated: GGGAGUUCUACAGUCCGACGAUC … UGGAAUUCUCGGGUGCCAA
Residues (chain): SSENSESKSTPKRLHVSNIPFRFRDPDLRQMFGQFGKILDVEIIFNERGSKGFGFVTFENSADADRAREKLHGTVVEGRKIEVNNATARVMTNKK
GGUGGCAAAAACUUGCAAAAAGCAGAUAUACUUUUGCUAAUUUAAGUUGAAGUACUAUGAAUACAACCUGCUAAUCUUGAUCCCCAAAUCUGAGCCCUUCAGUUUCAUAA: 0.257
UAUUUCUUUCAUUCAUAUCCCUGCUGAAAUAUUGGUACUAGCAACUUAAAGUUGGCAAGUCUCAUCUUCAGUAAUACGGAUGCCAUGGGAGUGGCCAGGCCAGAUUGAAG: 0.314
UGCCGAGGUCCAGGAGGCCUUGCCUGCUCUUCAUCUGCCUGCGAGCUGUAGGACCUGCAUGGGAAAUGGUCUGUGUGUUUCAGGUUAACAAAUACUGAAAAUCCCAAGGA: 9.13
UCCCUGAGCCUUCUUCCUGCCCUGGGUAGGAAGUGUGGCUCUGGGUCUGUGGUCACUCUCCACCUUGUCCUAGUGUUGCCAUGGUAGCAUGGCUUUGUAGUUUGCAUUUA: 0.848
UUUCCUGAAGUGUUUAUUUUCUCUCAUAUCCACCAAACGUGAAUCCUGUUCCUGAUGGCCCGUUAUUGGACACUGGUGAUGCUAUUAUCCUGUAUUAUUUAUUAAUAUCC: 0.554
AAGCUGCGCGUUGUUCAGGCAGUUUACCCCUACUAGAGAAGAAAGGAAGAAACGCUAGAAGAAAACAGGAGAGAGAGAAAAUUUGUGAAUUGCGGUCGUCAAAACAAAAC: 1.85
CACACUUUCCUCUUAAGAUCCGUCAUCUCCAGGACAUAAGUCCCCAGCUCCCAACUGUGGCCAUGGCUUAGUUGCAUAAAAGCAGGCAUGACUGGCUGUUAGGAGGUAUG: 0.555
CCUGGGUUCAAGCAAUUCUCCUGCUUCAGCCUCCCGAGUAGCUGGGAUUACAGGUGUGUACCACCACGCCUGGCAAUUUUUUUGUAUUUUUAGUAGAGAUGGGGUUUCGC: 0.411
ACCACUGGUUUUGUCCUGGUGUUUCCAGCACCAGAAUCCCAGCUUGGUGAGGUUUGAAGUUUCAGUGUGUCUUCUACAAAAUGACAGCCACAUCUACAUUAGCUUGAGAA: 0.292
AGAGAGAUGCACUAACAACUGGGGAUAGGGAUGGGGUCAGGGGGAGCCCAAGAUGGUGAUCUGCCCGAGACUCCCAGAGGGUAAUGCCACUCCCACAAUCUCAGGCCUGG: 0.64
AUUUGCAGAGAAACAGGUGUACAGUUAUCGUUGUACUUUUGUACAAUGUGAAUUUUGUUAAUAAAUUAUAAGGUUUGUUUUUUUUUUUUUAAACUCUGCAGUGUUGAUUU: 1.06
UAACACAGGACGUGUGUGCGCAUGUGCAAGUGUGGAUGUAUGUGUGUGCGUGUGUUUUGCUCAUUUCUUUAGGGAACUUGGGAGUCGGGGUUGGAGGUGCUGGGCAAUGG: 1.16

Sample 5 — target: CCNF, cyclin fold, Cln2 fusion (human); technique: yeast growth competition, sequencing; sample: yeast; setting: strong parent motif; reference: not given; direction: higher = stronger binding; endpoint: normalised enrichment score
Starting sequence: PKMYT1 docking peptide (human); SFEPRNLLSLFED
N6P: -0.365
N6E: -0.469
L8Q: -0.281
N6L: 0.22
S9C: -0.528
P4F: -0.488
S1I: 0.806
F11T: -0.0883
N6C: 2.35
D13F: 1.97
E12M: 1.1
S9H: 1.2
F11V: -0.202
L7I: -0.857
F2I: 0.456
D13I: 1.83
N6D: -1.65
D13P: 0.445
F2E: -0.11

Some of these lines once more (sample 4):
UGCCGAGGUCCAGGAGGCCUUGCCUGCUCUUCAUCUGCCUGCGAGCUGUAGGACCUGCAUGGGAAAUGGUCUGUGUGUUUCAGGUUAACAAAUACUGAAAAUCCCAAGGA: 9.13
CCUGGGUUCAAGCAAUUCUCCUGCUUCAGCCUCCCGAGUAGCUGGGAUUACAGGUGUGUACCACCACGCCUGGCAAUUUUUUUGUAUUUUUAGUAGAGAUGGGGUUUCGC: 0.411
UAUUUCUUUCAUUCAUAUCCCUGCUGAAAUAUUGGUACUAGCAACUUAAAGUUGGCAAGUCUCAUCUUCAGUAAUACGGAUGCCAUGGGAGUGGCCAGGCCAGAUUGAAG: 0.314
CACACUUUCCUCUUAAGAUCCGUCAUCUCCAGGACAUAAGUCCCCAGCUCCCAACUGUGGCCAUGGCUUAGUUGCAUAAAAGCAGGCAUGACUGGCUGUUAGGAGGUAUG: 0.555
UUUCCUGAAGUGUUUAUUUUCUCUCAUAUCCACCAAACGUGAAUCCUGUUCCUGAUGGCCCGUUAUUGGACACUGGUGAUGCUAUUAUCCUGUAUUAUUUAUUAAUAUCC: 0.554
UCCCUGAGCCUUCUUCCUGCCCUGGGUAGGAAGUGUGGCUCUGGGUCUGUGGUCACUCUCCACCUUGUCCUAGUGUUGCCAUGGUAGCAUGGCUUUGUAGUUUGCAUUUA: 0.848
AAGCUGCGCGUUGUUCAGGCAGUUUACCCCUACUAGAGAAGAAAGGAAGAAACGCUAGAAGAAAACAGGAGAGAGAGAAAAUUUGUGAAUUGCGGUCGUCAAAACAAAAC: 1.85
ACCACUGGUUUUGUCCUGGUGUUUCCAGCACCAGAAUCCCAGCUUGGUGAGGUUUGAAGUUUCAGUGUGUCUUCUACAAAAUGACAGCCACAUCUACAUUAGCUUGAGAA: 0.292
AUUUGCAGAGAAACAGGUGUACAGUUAUCGUUGUACUUUUGUACAAUGUGAAUUUUGUUAAUAAAUUAUAAGGUUUGUUUUUUUUUUUUUAAACUCUGCAGUGUUGAUUU: 1.06
AGAGAGAUGCACUAACAACUGGGGAUAGGGAUGGGGUCAGGGGGAGCCCAAGAUGGUGAUCUGCCCGAGACUCCCAGAGGGUAAUGCCACUCCCACAAUCUCAGGCCUGG: 0.64
UAACACAGGACGUGUGUGCGCAUGUGCAAGUGUGGAUGUAUGUGUGUGCGUGUGUUUUGCUCAUUUCUUUAGGGAACUUGGGAGUCGGGGUUGGAGGUGCUGGGCAAUGG: 1.16
